{"data": "Measured values of several laboratories", "note": "Every numbered part comes from another study and shows a few of its results, in no order."}
{"data": "Study 1", "target": "5-hydroxytryptamine receptor 1E (HTR1E, Homo sapiens, UniProt P28566)", "effect on": "ligand displacement", "technique": "radioligand", "concentration": "10 µM", "UniProt P28566, sequence (whole entry, looked up)": "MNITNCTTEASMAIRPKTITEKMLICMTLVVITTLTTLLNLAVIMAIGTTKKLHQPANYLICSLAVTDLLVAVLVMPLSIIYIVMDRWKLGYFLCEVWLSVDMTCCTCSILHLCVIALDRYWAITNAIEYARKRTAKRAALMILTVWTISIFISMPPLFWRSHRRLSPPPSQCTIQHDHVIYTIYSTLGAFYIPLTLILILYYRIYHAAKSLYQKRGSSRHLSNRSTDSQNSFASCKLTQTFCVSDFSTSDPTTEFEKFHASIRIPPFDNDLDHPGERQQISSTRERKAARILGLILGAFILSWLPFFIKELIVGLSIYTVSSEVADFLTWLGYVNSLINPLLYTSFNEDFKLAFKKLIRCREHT"}
{"Structure (SMILES)": "COc1ccc2c(O[C@@H]3C[C@H]4C(=O)N[C@]5(C(=O)O)CC5/C=C\\CCCCC[C@H](NC(=O)OC5CCCC5)C(=O)N4C3)cc(-c3csc(NC(=O)C(C)C)n3)nc2c1C (some centres unmarked)", "inhibition [%]": 14.9}
{"Structure (SMILES)": "Cc1cc(-n2nc(Cc3cc(F)cc(C(F)(F)F)c3)nc2C)ccc1C(N)=O", "inhibition [%]": 10.5}
{"Structure (SMILES)": "CSc1cccnc1N1CCN(Cc2nc3ccccc3[nH]2)CC1", "inhibition [%]": 20.9}
{"Structure (SMILES)": "CN(C)C(=O)Cn1cc(-c2nc([C@@](C)(c3ccc(-c4cnc(N)nc4)cc3)C3CC3)no2)cn1", "inhibition [%]": -14}
{"Structure (SMILES)": "C[C@@H](NC(=O)Nc1cc2[nH]ncc2c(CO)n1)c1ccccc1", "inhibition [%]": -10.7}
{"Structure (SMILES)": "Cn1nc(C(F)(F)F)cc1-c1cnc(N2CCc3cc(S(=O)(=O)Nc4c(F)cc(Cl)cc4F)cc(N4CCCC4=O)c32)nc1", "inhibition [%]": 14.8}
{"Structure (SMILES)": "COc1cccc(NC(=O)c2nc3scc(CN(C)Cc4ccccc4)c3c(=O)[nH]2)c1", "inhibition [%]": -0.688}
{"Structure (SMILES)": "CNC(=O)Nc1ccc2c(c1)CC[C@]21OC(=O)N(CC(=O)N(Cc2ccc(F)cc2)[C@@H](C)C(F)(F)F)C1=O", "inhibition [%]": 4.23}
{"Structure (SMILES)": "CNC(=O)c1ccc(Nc2ncc(C(F)(F)F)c(NCc3nccnc3N(C)S(C)(=O)=O)n2)cc1", "inhibition [%]": 18.2}
{"Structure (SMILES)": "CS(=O)(=O)NCC[C@H](NC(=O)c1cncc2c1cnn2-c1ccc(F)cc1)c1ccnc(S(C)(=O)=O)c1", "inhibition [%]": 8.79}
{"Structure (SMILES)": "Cn1cncc1[C@](O)(COc1ccc(C#N)cc1-c1ccc(OC(F)(F)F)cc1)c1ccc(C#N)cc1", "inhibition [%]": 1.11}
{"Structure (SMILES)": "COc1cc(-c2cn(C3CCc4c(F)cccc4N(CC(F)(F)F)C3=O)nn2)ccc1-n1cnc(C)c1 (centres unmarked)", "inhibition [%]": -8.76}
{"Structure (SMILES)": "CC1=C(C#N)C(c2ccc3c(c2)c(NC(=O)c2ccccc2C)nn3C)C(C#N)=C(C)N1", "inhibition [%]": 11.4}
{"Structure (SMILES)": "C[C@@H](c1cccc(C#N)c1)n1cc(Cl)cc(C(N)=O)c1=N", "inhibition [%]": -1.72}
{"Structure (SMILES)": "CCC(=O)N[C@H]1CC[C@@H](C(=O)N(C)c2ccc(-c3nc4ccccc4o3)cc2)C1", "inhibition [%]": -3.14}
{"Structure (SMILES)": "C[C@@]1(Cc2ccc(C#N)cc2)C(=O)N(c2cc(Cl)cc(Cl)c2)c2ncc(C(=O)NC3(c4nc(C5CCC5)no4)CC3)n21", "inhibition [%]": 31.5}
{"Structure (SMILES)": "CCOc1cc(N2C3COCC2CN(C(=O)[C@H]2C[C@H](O)CN2c2ccc(Cl)cc2)C3)ccc1Cl", "inhibition [%]": -16}
{"data": "Study 2", "host": "human", "matrix": "microsomes or S9", "concentration": "2 µM", "time": "0.5 h"}
{"Compound": "CC(C)(C)c1ccc(Cn2ncc3ccccc32)cc1", "remaining compound [%]": 2.6}
{"Compound": "O=c1c2c3c(sc2ncn1Cc1ccc2c(c1)OCO2)CNCC3", "remaining compound [%]": 66.4}
{"Compound": "O=c1[nH]c(N2CCc3ccccc3C2)nc2ncc3c(c12)CCC3", "remaining compound [%]": "< 1"}
{"Compound": "Brc1c[nH]nc1-c1nc2c3ccccc3ncn2n1", "remaining compound [%]": "> 99"}
{"Compound": "COc1cccc(N(Cc2n[nH]c(=O)[nH]2)C(=O)CCC2CCCC2)c1", "remaining compound [%]": 61.4}
{"Compound": "COc1ccc(C2(C)CC(C)(C)Nc3ccccc32)cc1 (centres unmarked)", "remaining compound [%]": 12.4}
{"Compound": "Cc1ccc(Cl)cc1NC(=O)Cn1ncc2ccccc2c1=O", "remaining compound [%]": 57.7}
{"Compound": "COc1ccc(C(=O)N2CCC(c3ccc(OC)cc3)(c3ccc(OC)cc3)CC2)cc1", "remaining compound [%]": 16.7}
{"Compound": "COc1cc(=O)[nH]cc1C(=O)N1CCCCC1c1ccccc1 (centres unmarked)", "remaining compound [%]": 89.5}
{"data": "Study 3", "target": "Ephrin type-A receptor 1 (EPHA1, Homo sapiens, UniProt P21709)", "effect on": "enzyme activity", "action": "inhibitor", "concentration": "0.5 µM", "relative to": "control", "Construct (P21709 1-976)": "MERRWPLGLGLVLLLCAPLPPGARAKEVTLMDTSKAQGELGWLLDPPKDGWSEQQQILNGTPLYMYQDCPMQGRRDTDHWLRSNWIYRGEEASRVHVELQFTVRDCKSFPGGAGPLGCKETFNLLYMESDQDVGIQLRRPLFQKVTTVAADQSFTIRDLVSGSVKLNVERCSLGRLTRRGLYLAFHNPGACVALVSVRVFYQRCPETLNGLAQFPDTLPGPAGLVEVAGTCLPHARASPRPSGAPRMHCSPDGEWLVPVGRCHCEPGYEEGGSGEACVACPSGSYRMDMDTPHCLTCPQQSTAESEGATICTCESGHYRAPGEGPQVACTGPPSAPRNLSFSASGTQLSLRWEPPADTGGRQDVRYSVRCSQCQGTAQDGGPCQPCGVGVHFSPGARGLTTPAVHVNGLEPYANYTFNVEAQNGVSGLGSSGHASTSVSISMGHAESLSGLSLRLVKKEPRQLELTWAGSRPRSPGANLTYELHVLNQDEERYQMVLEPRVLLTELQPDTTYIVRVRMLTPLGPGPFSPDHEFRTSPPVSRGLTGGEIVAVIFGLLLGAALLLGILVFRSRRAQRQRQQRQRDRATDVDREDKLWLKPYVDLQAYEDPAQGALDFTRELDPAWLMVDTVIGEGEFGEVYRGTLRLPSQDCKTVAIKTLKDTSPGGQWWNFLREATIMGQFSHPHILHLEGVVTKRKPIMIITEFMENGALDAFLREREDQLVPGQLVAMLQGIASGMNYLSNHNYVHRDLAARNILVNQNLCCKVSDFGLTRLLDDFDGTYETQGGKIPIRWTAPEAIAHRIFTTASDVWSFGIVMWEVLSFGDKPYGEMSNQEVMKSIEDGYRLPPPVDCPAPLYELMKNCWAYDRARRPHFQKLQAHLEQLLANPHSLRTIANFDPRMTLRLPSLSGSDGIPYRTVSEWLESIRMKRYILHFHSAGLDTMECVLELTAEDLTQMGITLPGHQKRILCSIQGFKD"}
{"SMILES": "c1ccc(-c2n[nH]c3c2oc2ccccc23)cc1", "remaining activity [%]": 78.6}
{"SMILES": "CN1CCN(c2ccc3nc(-c4c(N)c5c(F)cccc5[nH]c4=O)[nH]c3c2)CC1", "remaining activity [%]": 90.6}
{"SMILES": "CN(C)S(=O)(=O)c1ccc2c(c1)/C(=C/c1cc3c([nH]1)CCCC3)C(=O)N2", "remaining activity [%]": 94.5}
{"SMILES": "Cc1cc(Nc2cc(N3CCN(C)CC3)nc(Sc3ccc(NC(=O)C4CC4)cc3)n2)[nH]n1", "remaining activity [%]": 78.1}
{"SMILES": "O=C1Nc2ccccc2/C1=C\\c1c(Cl)[nH]c2ccccc12", "remaining activity [%]": 98.5}
{"SMILES": "Cc1ccc(S(=O)(=O)/C=C/C#N)cc1", "remaining activity [%]": 93.2}
{"SMILES": "COc1ccc2c(c1)c(C1=C(c3c[nH]c4ccccc34)C(=O)NC1=O)cn2CCCN(C)C", "remaining activity [%]": 76.2}
{"data": "Study 4", "Structure (SMILES)": "COc1cc(C(=O)N2CCC(N3CCN(C)CC3)CC2)ccc1Nc1ncc2c(n1)N(C)c1ccccc1C(=O)N2C"}
{"target": "MARK3 and MARK4 (mouse)", "test": "probe labelling, KiNativ, item: EVAIkIIDK peptide, LYS1 site", "test system": "brain tissue lysate (mouse)", "conditions": "0.1 µM, together with: ADP acyl-phosphate probe", "inhibition": "-2.5%"}
{"target": "PIP4K2C (mouse)", "test": "probe labelling, KiNativ, item: VKELPTLkDMDFLNK peptide, ATP site", "test system": "brain tissue lysate (mouse)", "conditions": "1 µM, together with: ATP acyl-phosphate probe", "inhibition": "15.4%"}
{"target": "TNIK (mouse)", "test": "probe labelling, inhibitor, KiNativ ActivX ADP probe", "test system": "mouse brain lysate", "conditions": "1 µM, Lys1 site peptide", "inhibition": "6.9%"}
{"target": "mouse ROCK1", "test": "probe labelling, KiNativ ATP probe", "test system": "mouse brain lysate", "conditions": "0.1 µM", "inhibition": "-4.1%"}
{"target": "PIK3CB human", "test": "KiNativ profiling", "test system": "human PBMC", "conditions": "1 µM, ATP site, together with: ATP acyl phosphate probe", "inhibition": "-1.8%"}
{"note": "Excerpt of the above (study 1):"}
{"Structure (SMILES)": "C[C@@H](NC(=O)Nc1cc2[nH]ncc2c(CO)n1)c1ccccc1", "inhibition [%]": -10.7}
{"Structure (SMILES)": "COc1cc(-c2cn(C3CCc4c(F)cccc4N(CC(F)(F)F)C3=O)nn2)ccc1-n1cnc(C)c1 (centres unmarked)", "inhibition [%]": -8.76}
{"Structure (SMILES)": "CS(=O)(=O)NCC[C@H](NC(=O)c1cncc2c1cnn2-c1ccc(F)cc1)c1ccnc(S(C)(=O)=O)c1", "inhibition [%]": 8.79}
{"Structure (SMILES)": "CNC(=O)Nc1ccc2c(c1)CC[C@]21OC(=O)N(CC(=O)N(Cc2ccc(F)cc2)[C@@H](C)C(F)(F)F)C1=O", "inhibition [%]": 4.23}
{"Structure (SMILES)": "CNC(=O)c1ccc(Nc2ncc(C(F)(F)F)c(NCc3nccnc3N(C)S(C)(=O)=O)n2)cc1", "inhibition [%]": 18.2}
{"Structure (SMILES)": "CCC(=O)N[C@H]1CC[C@@H](C(=O)N(C)c2ccc(-c3nc4ccccc4o3)cc2)C1", "inhibition [%]": -3.14}
